Results gathered from unrelated publications.
Protocols differ between the studies behind these lines. ± marks the error that the study gave.

The Cmax of `CCO` is reported as 65.9 ± 10.9 mg/100 mL (human, breath; 0.5 g/kg, added: 10 mg co-dosed drug).
With `O=C(O)c1ccccc1O` the Cmax was 30100 ng/mL (humans, both sexes, plasma; oral, 650 mg aspirin, with alcohol, geometric mean).
`C#C[C@]1(O)CC[C@H]2[C@@H]3CCC4=CC(=O)CC[C@@H]4[C@H]3CC[C@@]21CC` gave a Cmax of 2.24 ng/mL (human female, plasma; single dose oral contraceptive, added: ritlecitinib 50 mg once daily multiple doses).
The Cmax of `COc1cc2ncnc(Nc3ccc(F)c(Cl)c3)c2cc1NC(=O)/C=C/CN1CCCCC1` is reported as 13.1 ng/mL (refers to: total drug; human, mild hepatic impairment, plasma; single dose, Child-Pugh classification).
`C=CC(=O)NC1CCN(c2ncc3ncnc(Nc4ccc(Oc5ccc6c(c5)ncn6C)c(C)c4)c3n2)CC1` has a Cmax of 399 nM (human, male, plasma; oral, 30 mg single dose, fasted, geometric mean).
`CN(C)C(=O)c1cc2cnc(Nc3ccc(N4CCNCC4)cn3)nc2n1C1CCCC1` gave a Cmax of 421 ng/mL (human, mild renal impairment, plasma; oral, 400 mg, geometric mean).
For `CCN1CCN(Cc2ccc(Nc3ncc(F)c(-c4cc(F)c5nc(C)n(C(C)C)c5c4)n3)nc2)CC1`, the Cmax was 95.2 ng/mL (healthy human, fasted; oral, 150 mg, tablet).
For `N#CCNC(=O)c1ccc(-c2ccnc(Nc3ccc(N4CCOCC4)cc3)n2)cc1`, the Cmax was 261 ng/mL (healthy human volunteers, plasma; oral, 100 mg once daily, day 7, fed, given alone).
`COC(=O)N[C@@H](C)CNc1nccc(-c2cn(C(C)C)nc2-c2cc(Cl)cc(NS(C)(=O)=O)c2F)n1` has a Cmax of 698 ng/mL (human, plasma; oral, 50 mg, geometric mean, added: diltiazem 240 mg once daily).
For `Cn1ncnc1[C@H]1c2n[nH]c(=O)c3cc(F)cc(c23)N[C@@H]1c1ccc(F)cc1`, the Cmax was 6 ng/mL (human patients, plasma; oral, 600 µg/m2 twice daily, day 1, monotherapy, dose level DL5, median).
For `NS(=O)(=O)OC[C@@H]1C[C@@H](n2ccc3c(N[C@H]4CCc5ccccc54)ncnc32)C[C@@H]1O`, the Cmax was 279 ng/mL (LC-MS/MS, non-compartmental; human, plasma; intravenous, all dose levels, cycle 1 day 8, median, added: irinotecan/temozolomide).
`Cc1nc2ccc(F)cc2n1-c1nc(N)c(F)c(Nc2ccc(C(F)(F)F)cc2)n1` has a Cmax of 1580 ng/mL (human patients, plasma; oral, 300 mg twice weekly, cycles 1 and 2 pooled).
For `O=C(O)CCCCCCCCCCCCCCCCC(=O)O`, the Cmax was 113 ± 13 nM (human, plasma; concentration not given, endogenous control diurnal).
With `C[C@@H](N)c1cc(Cl)ccc1Cn1c(=S)[nH]c(=O)c2[nH]ccc21` the Cmax was 6.84 nM (human, both sexes, matched healthy controls, plasma; oral, 2.5 mg single dose, geometric mean).
For `Cn1cc(-c2ccc(S(=O)(=O)[C@@H]3C[C@@H](C(=O)NC4(C#N)CC4)N(C(=O)C4(C(F)(F)F)CC4)C3)c(C(F)(F)F)c2)cn1`, the Cmax was 865 ng/mL (noncompartmental; human, both sexes, plasma; oral, 100 mg once daily, day 1, with food, single dose).
`Cn1c(=O)oc2ccc(-c3ccc(C[C@@H](C#N)NC(=O)[C@@H]4CNCCCO4)cc3)cc21` gave a Cmax of 169 ng/mL (human, mild renal impairment, plasma; oral, 25 mg single dose, geometric least squares mean).
`C=CC(=O)N1CCC[C@@H](n2c(=O)n(-c3ccc(Oc4ccccc4)cc3)c3c(N)nccc32)C1` has a Cmax of 27.8 ng/mL (human, fed, plasma; oral, 120 mg, geometric mean).
`Cn1nc2c(=O)n(C3CC3)cnc2c1[C@](O)(c1cnc(C(F)(F)F)c(Cl)c1)C(F)(F)F` has a Cmax of 506 nM (humanized SCID mice, blood; 1 mg/kg once daily, 6 days, infected).
`C[C@H](CCC(=O)NCC(=O)O)[C@H]1CC[C@H]2[C@@H]3[C@H](O)C[C@@H]4C[C@H](O[C@@H]5O[C@H](C(=O)O)[C@@H](O)[C@H](O)[C@H]5O)CC[C@]4(C)[C@H]3CC[C@]12C` gave a Cmax of 71.9 ± 19.5 nM (human, plasma; concentration not given, endogenous control diurnal).
For `Cc1noc(C)c1-c1cc(C(O)(c2ccccn2)c2ccccn2)c2nc(C3CC3)[nH]c2c1`, the Cmax was 293 ng/mL (human male patients, fasted, plasma; oral, 6 mg once daily, cycle 1 day 8).

Some of these lines once more:
`Cc1nc2ccc(F)cc2n1-c1nc(N)c(F)c(Nc2ccc(C(F)(F)F)cc2)n1` has a Cmax of 1580 ng/mL (human patients, plasma; oral, 300 mg twice weekly, cycles 1 and 2 pooled).
The Cmax of `COc1cc2ncnc(Nc3ccc(F)c(Cl)c3)c2cc1NC(=O)/C=C/CN1CCCCC1` is reported as 13.1 ng/mL (refers to: total drug; human, mild hepatic impairment, plasma; single dose, Child-Pugh classification).
